Experimental data pooled from the literature.
Each numbered part is a random draw from the data of one study; scales do not carry over between parts. Changes are numbered by the printed parent chain.

Series 1 — target: CCNE1, cyclin fold, Cln2 fusion (human); method: yeast growth competition, sequencing; sample: yeast; notes: strong parent motif; baseline: not given; reading: higher = stronger binding
Parent: SCAPER docking peptide (human); SNARRSLNFGGST
| Substitution | normalised enrichment score |
| --- | --- |
| SNARYSLNFGGST [R5Y] | -0.0757 |
| SNARRSLNFMGST [G10M] | 0.951 |
| SNARRSLNFWGST [G10W] | 1.58 |
| SNARGSLNFGGST [R5G] | -0.169 |
| SNARRSPNFGGST [L7P] | 0.122 |
| SMARRSLNFGGST [N2M] | 0.169 |
| SNARRSLNFAGST [G10A] | 0.912 |
| SNARRSLNFGGSH [T13H] | 0.405 |
| SNARRSLNFGGKT [S12K] | 0.705 |
| SNQRRSLNFGGST [A3Q] | -0.515 |
| SNARLSLNFGGST [R5L] | 0.326 |
| SNARRSLNPGGST [F9P] | 0.591 |
| SNARRSWNFGGST [L7W] | 0.142 |
| SNVRRSLNFGGST [A3V] | 0.459 |
| SNARRQLNFGGST [S6Q] | 4.26 |
| SNARRSLNFGGLT [S12L] | 1.62 |

Series 2 — method: protein binding microarray; form: double-stranded DNA, one strand shown; sample: in vitro; concentration: not given; baseline: not given; reading: higher = stronger binding
Target: Histone acetyltransferase KAT6A, both winged helices, GST fusion (KAT6A, Homo sapiens, UniProt Q92794, residues 1-181)
Notes: 8-mer, flanks averaged, mean of 2 arrays, mostly near background
Residues (chain): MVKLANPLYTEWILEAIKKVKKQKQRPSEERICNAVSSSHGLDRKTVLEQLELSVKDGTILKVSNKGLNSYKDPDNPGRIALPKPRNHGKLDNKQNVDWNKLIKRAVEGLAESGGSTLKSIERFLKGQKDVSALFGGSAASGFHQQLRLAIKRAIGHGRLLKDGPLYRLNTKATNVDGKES
| Sequence | E-score |
| --- | --- |
| CGCGTACC | 0.274 |
| AAGGCGAA | 0.0323 |
| ACACTACC | -0.085 |
| AACAGACA | -0.0172 |
| AAAGGAGC | 0.0254 |
| CGAGAAAA | -0.096 |
| CACAATTC | 0.0153 |
| AAGACCTC | -0.053 |
| AGCGTGAG | 0.157 |
| CCGGGAGC | 0.22 |
| CAGCCTCA | -0.265 |
| ACTTAGCG | 0.101 |
| ATGAGTGC | 0.0341 |
| GAGGTATC | 0.0188 |
| CAGCCCGC | 0.0632 |
| ATGGGTCG | -0.0659 |
| ACCGAAGG | -0.021 |
| GGTTGGGA | -0.186 |
| GCGAATCA | 0.109 |
| TCTCTACA | -0.309 |
| ACATCACT | -0.118 |
| CGCCATGC | 0.171 |

Series 3 — method: RNA Bind-n-Seq; form: RNA; sample: in vitro; concentration: 200 nM; notes: whole 134-nt RNA, ends assumed; with: 150 mM KCl; baseline: input library; reading: higher = stronger binding
Target: Fragile X messenger ribonucleoprotein 1, C-terminal low-complexity region (Fmr1, Mus musculus, UniProt P35922)
| Sequence | log2 enrichment |
| --- | --- |
| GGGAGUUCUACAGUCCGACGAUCGCAGGAAGUAAAAACAAAUGGAAAUGCUUCGGAUAGUGGCAGGGGUGGGGGUUGCUAAGGAAAGGGUGGGAUGGGAGUGGGGAAAGAGUUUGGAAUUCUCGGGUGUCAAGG | 0.527 |
| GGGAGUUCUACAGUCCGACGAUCGUCCUGUGCUACACAUCGUAUGUACCGAAUCAAACCCCCCCAAAUUUAAAUUUUUAAAAAAGUAUUAUGUUACGCCGUUCGGAUCUGCACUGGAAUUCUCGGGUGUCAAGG | 0.429 |
| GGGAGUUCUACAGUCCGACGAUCAGUCCUGUGCUACACAUCGUAUGUACCGAAUCGGGAGGGAAAAAGGGUUUUUUUGGGAAAGUAUUAUGUUACGCCGUUCGGAUCUGCACUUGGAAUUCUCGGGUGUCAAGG | 0.416 |
| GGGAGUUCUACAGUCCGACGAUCCCUCAAGUCCUGUGCUACACAUCGUAUGUACCGAAUCGGCCGGGCCGGGCCGGAAAGUAUUAUGUUACGCCGUUCGGAUCUGCACUUCCAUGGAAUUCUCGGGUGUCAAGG | -0.226 |
| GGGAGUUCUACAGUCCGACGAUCAAGUCCUGUGCUACACAUCGUAUGUACCGAAUCGGGAAAAGGGGAAAAGGAAAAGGAAAGUAUUAUGUUACGCCGUUCGGAUCUGCACUUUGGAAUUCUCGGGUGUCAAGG | -0.636 |
| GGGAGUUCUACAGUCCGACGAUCUGGGAGGUGGAUUUUGUUUAUUUUUUUAGCUCAUUUCCAGGGGUGGGAACUUUUUUUUAAUAUGUGUCAUGAAUAAAGUUGUUUUUGAAAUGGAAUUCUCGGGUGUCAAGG | 0.262 |
| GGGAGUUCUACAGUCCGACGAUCGUCCUGUGCUACACAUCGUAUGUACCGAAUCGGAAAAAGGGAAAAAGGGAAAAAGGGGAAAGUAUUAUGUUACGCCGUUCGGAUCUGCACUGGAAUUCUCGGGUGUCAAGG | -0.0514 |
| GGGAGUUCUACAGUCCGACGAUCAGUCCUGUGCUACACAUCGUAUGUACCGAAUCAAAUUUAAACCCCCAAAUUUUUAAAAAAGUAUUAUGUUACGCCGUUCGGAUCUGCACUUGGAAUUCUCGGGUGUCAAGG | 0.086 |
| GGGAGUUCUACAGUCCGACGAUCGCAGGAAGUAAAAACAAAUGGAAAUGCUUCGGAUAGUGGCAGGGGUGGGGGUUGCUAAAGAAAGGGUGGGAUGGGAGUGGGUAAAGAGUUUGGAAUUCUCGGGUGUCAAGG | 0.0509 |
| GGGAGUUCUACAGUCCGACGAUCCCUCAAGUCCUGUGCUACACAUCGUAUGUACCGAAUCGGAAAAAGGUGGUGGAAAGUAUUAUGUUACGCCGUUCGGAUCUGCACUUCCAGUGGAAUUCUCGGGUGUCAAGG | 0.261 |
| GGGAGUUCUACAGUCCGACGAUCCCUGUGCUACACAUCGUAUGUACCGAAUCGGGGUUUUUUUGGGGAAAAAGGGGUUUGGGGAAAGUAUUAUGUUACGCCGUUCGGAUCUGCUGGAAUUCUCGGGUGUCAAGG | 0.23 |
| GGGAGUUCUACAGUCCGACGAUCUAACUUUAGAGGAGGAUCUGAUGGAUAUGGCAGUGGACGUGGAUUUGGGGAUGGCUAUAAUGGGUAUGGAGGAGGACCUGGAGGUGGCAAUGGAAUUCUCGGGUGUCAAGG | 0.164 |
| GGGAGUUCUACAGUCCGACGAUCUGGUUUGAGUCCAGCCAAUGACACUGGAGCCAAAAAGAAGAAAAAGAAACAAAAAAAGAAGAAAGAAAAAGGCAGUGAGACAGAUUCAGCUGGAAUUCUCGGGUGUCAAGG | 0.224 |
| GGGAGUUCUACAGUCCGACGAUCUCAAGUCCUGUGCUACACAUCGUAUGUACCGAAUCGGGAAAGGAAAGGAAAGGGAAAGUAUUAUGUUACGCCGUUCGGAUCUGCACUUCCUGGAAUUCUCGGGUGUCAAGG | -0.49 |

Series 4 — method: protein-binding microarray; form: double-stranded DNA, one strand shown; sample: in vitro; concentration: 250 nM; notes: 60-bp whole probe; with: salmon DNA 0.4 mg/ml; baseline: random background probes; reading: higher = stronger binding; constant ends, left off below: GCCTAGCAC … GTCTTGATTCGCTTGACGCTGCTG
Target: Interferon regulatory factor 5, full length, phosphomimetic (IRF5, Homo sapiens, UniProt Q13568-2, residues 1-514, K96S/S451D/S453D/S456D/S462D)
| Sequence | log fluorescence [z-score] |
| --- | --- |
| TTCCAACTCTGTTTTCGCTTGTGCTAG | 2.87 |
| GACGATTTCAGCCTGGAGACGTGCTAG | 0.416 |
| GGCGATATCAGTATCGAGACGTGCTAG | 3.24 |
| GACGGTTTCGGGTATCCGGACGTGCTA | 7.94 |
| GACGATATCGGGACTGGAGAAGTGCTA | 0.933 |
| GCCGGACTGGGTCTCGGGACGTGCTAG | -0.638 |
| TTAGCACTGAGTATCGATTAGTGCTAG | 5.85 |
| TCAAGTTTATACCTTAGACTGTGCTAG | -0.158 |
| TCAGGTGTTCTTTTCTGACTGTGCTAG | 0.326 |
| TTAGGTATCGACTTTCGGTGAGTGCTA | 8.93 |
| TTAGGACTGCTTTTCCTTTCGTGCTAG | 1.25 |
| AGTGGGGAGGGAGAGAATCCGTGCTAG | 0.0689 |
| CAAACACTAATTTTCAATTCGTGCTAG | 1.03 |
| GACGGTTTCGGTCTTGGGACGTGCTAG | 9.43 |
| TCACACATCTCACTCTAACTGTGCTAG | 0.455 |
| GATGGTTTCGACACTGGGGACGTGCTA | 5.24 |
| GACGGTATCGGTCTCGCGACGTGCTAG | 5.27 |
| GACGATATCAGACAGGAGACGTGCTAG | 0.573 |
| TTAGGTATCGGTCTGGGTTAGTGCTAG | 7.09 |
| TTAGGACTGGGGACTGGGTGAGTGCTA | -0.529 |
| GACGAGTTCAGTATCGAGACGTGCTAG | 2.37 |
| TAAGGTTTCCTTTTCCTTTAGTGCTAG | 1.28 |
| TTAGGTTTCCATATCCTTTAGTGCTAG | 1.18 |
| TCAACTCTAATCTCACTCACTGTGCTA | 0.31 |
| TTAGGTATCCTTTTCCATTAGTGCTAG | 0.602 |

Series 5 — method: aptamer microarray, sandwich; form: DNA with 2'F-ANA; sample: in vitro; concentration: 200 nM; with: Cy3 exosite-II aptamer, 400 nM; reading: higher = stronger binding; sequence: GGTTGGTGTGGTTGG
Target: Prothrombin, mature alpha-thrombin (F2, Homo sapiens, UniProt P00734)
Notes: whole 15-mer aptamer, many near background
| Modification | mean fluorescence intensity [a.u.] |
| --- | --- |
| 2'F-ANA at 1 3 4 5 8 9 10 11 13 | 59.5 |
| 2'F-ANA at 1 3 4 5 7 8 9 13 14 | 46.3 |
| 2'F-ANA at 2 3 5 7 10 15 | 51 |
| 2'F-ANA at 1 2 4 5 8 10 11 12 15 | 48.9 |
| 2'F-ANA at 1 4 9 10 11 13 14 15 | 48 |
| 2'F-ANA at 2 3 5 8 9 11 12 | 208 |
| 2'F-ANA at 2 8 13 15 | 369 |
| 2'F-ANA at 1 4 5 6 8 9 10 11 13 14 15 | 50 |
| 2'F-ANA at 1 4 5 6 7 8 9 13 | 52.8 |
| 2'F-ANA at 1 4 6 7 10 15 | 45.9 |
| 2'F-ANA at 1 3 4 | 221 |
| 2'F-ANA at 2 3 9 11 12 13 14 15 | 369 |
| 2'F-ANA at 5 6 7 10 11 14 15 | 49.4 |
| 2'F-ANA at 1 2 3 4 5 7 8 9 10 14 | 66.7 |
| 2'F-ANA at 1 2 3 5 6 8 9 11 13 | 57.1 |
| 2'F-ANA at 1 2 4 5 6 7 8 12 13 15 | 85.1 |
| 2'F-ANA at 1 2 3 5 7 11 | 58.8 |
| 2'F-ANA at 1 2 3 5 7 8 9 12 15 | 138 |
| 2'F-ANA at 3 5 10 12 | 67.6 |
| 2'F-ANA at 4 5 7 9 14 | 44.4 |
| 2'F-ANA at 1 8 11 12 15 | 393 |
| 2'F-ANA at 1 4 5 7 8 9 12 13 14 | 44.6 |
| 2'F-ANA at 1 3 4 6 7 11 13 14 | 62.6 |
| 2'F-ANA at 2 3 6 7 9 11 13 | 512 |
| 2'F-ANA at 1 2 3 7 8 9 13 15 | 210 |

For quick reference, copied from above (series 2):
| Sequence | E-score |
| --- | --- |
| AACAGACA | -0.0172 |
| AAAGGAGC | 0.0254 |
| CGAGAAAA | -0.096 |
| CACAATTC | 0.0153 |
| AAGACCTC | -0.053 |
| AGCGTGAG | 0.157 |
| CCGGGAGC | 0.22 |
| CAGCCTCA | -0.265 |
| ACTTAGCG | 0.101 |
| ATGAGTGC | 0.0341 |
| GAGGTATC | 0.0188 |
| CAGCCCGC | 0.0632 |
| ATGGGTCG | -0.0659 |
| ACCGAAGG | -0.021 |
| GGTTGGGA | -0.186 |
